Assay results from different studies.
Each line is one published result; not all experiments were run side by side. ± marks the error that the study gave.
Cell line: MCF7

`C[C@H](Nc1ccc2c(c1)OCCn1cc(N3C(=O)OC[C@H]3C(F)F)nc1-2)C(N)=O` has an IC50 of 68.3 nM (western blot, measured: phospho-S6 Ser235/Ser236; 2 h).
For `C[C@@H]1CC[C@@H]([C@](C)(O)CNCc2ccccc2F)[C@H](OCc2ccccc2)C1`, the IC50 was 8570 nM (cell growth, inhibitor, MTT; 72 h).
`O=C(Nc1ccc(CN2CCOCC2)c(C(F)(F)F)c1)c1ccc(C#Cc2cccc3cnccc23)cn1` has an IC50 of over 180000 nM (cell viability, MTT; 72 h).
With `CC(C)(C)c1ccc(CN2CCN(C(c3ccccc3)c3ccc(Cl)cc3)CC2)cc1` (stereo not drawn) the IC50 was 31300 ± 7800 nM (cell growth; 72 h).
`Cc1nc(NC(=O)N2CCC[C@H]2C(N)=O)sc1-c1ccnc(C(C)(C)C(F)(F)F)c1` has an IC50 of 54.6 nM (western blot, measured: phospho-PKB/Akt Ser473; 2 h).
With `Cc1nc(NC(=O)N2CCC[C@H]2C(N)=O)sc1-c1ccnc(C(C)(C)C(F)(F)F)c1` the IC50 was 1470 nM (growth rate inhibition, CellTiter-Glo; 120 h).
For `C[C@@H]1CC[C@@H]([C@](O)(CNCc2cccc3ccccc23)COCc2ccccc2)[C@H](OCc2ccccc2)C1`, the IC50 was 5930 nM (cell growth, inhibitor, MTT; 72 h).
With `CC(=O)Nc1ccc(Oc2nnc(-c3ccc(Cl)cc3)c3ccccc23)cc1` the IC50 was 150 nM (cell growth, MTT).
The IC50 of `CCC(=O)N1CCC(COCC(=O)N2CCN(c3nc(-c4cnc(N)nc4C(F)F)nc(N4CCOC[C@@H]4C)n3)CC2)CC1` is reported as 135 nM (western blot, measured: phospho-S6 Ser235/Ser236; 2 h).
The IC50 of `C[C@H](Nc1ccc2c(c1)OCCn1cc(N3C(=O)OC[C@H]3C(F)F)nc1-2)C(N)=O` is reported as 528 nM (growth rate inhibition, CellTiter-Glo; 120 h).
`O=C1NCCc2[nH]c(-c3ccncc3)cc21` has an IC50 of 3770 nM (MTS; NCI60 panel).
With `C[C@@H]1CC[C@@H]([C@@](C)(O)Cn2cnc3ccccc32)[C@H](OCc2ccccc2)C1` the IC50 was 9410 nM (cell growth, inhibitor, MTT; 72 h).
With `O=C1NC(=NCc2cccs2)S/C1=C\c1ccc2ncccc2c1` the IC50 was 10000 nM (MTS; NCI60 panel).
With `COc1cccc2c1C(=O)c1c(O)c3c(c(O)c1C2=O)C[C@@](O)(C(=O)CO)C[C@@H]3O[C@H]1C[C@H](N)[C@H](O)[C@H](C)O1` the IC50 was 0.21 ± 0.01 µg/mL (cell viability, MTT; 48 h).
With `COc1ccc(CNC[C@](O)(COCc2ccc(OC)cc2)[C@@H]2CC[C@@H](C)C[C@H]2OCc2ccc(OC)cc2)cc1` the IC50 was 1420 nM (cell growth, inhibitor, MTT; 72 h).

Some of these lines once more:
The IC50 of `CCC(=O)N1CCC(COCC(=O)N2CCN(c3nc(-c4cnc(N)nc4C(F)F)nc(N4CCOC[C@@H]4C)n3)CC2)CC1` is reported as 135 nM (western blot, measured: phospho-S6 Ser235/Ser236; 2 h).
